{"data": "Measured values collected from several papers", "Genome polyprotein NS3 helicase domain": "Genome polyprotein, NS3 helicase domain (Hepatitis C virus genotype 1b, UniProt Q9WMX2)", "PHKG2": "Phosphorylase b kinase gamma catalytic chain, liver/testis isoform (PHKG2, Homo sapiens, UniProt P15735)", "UniProt P15735, sequence (whole entry, looked up)": "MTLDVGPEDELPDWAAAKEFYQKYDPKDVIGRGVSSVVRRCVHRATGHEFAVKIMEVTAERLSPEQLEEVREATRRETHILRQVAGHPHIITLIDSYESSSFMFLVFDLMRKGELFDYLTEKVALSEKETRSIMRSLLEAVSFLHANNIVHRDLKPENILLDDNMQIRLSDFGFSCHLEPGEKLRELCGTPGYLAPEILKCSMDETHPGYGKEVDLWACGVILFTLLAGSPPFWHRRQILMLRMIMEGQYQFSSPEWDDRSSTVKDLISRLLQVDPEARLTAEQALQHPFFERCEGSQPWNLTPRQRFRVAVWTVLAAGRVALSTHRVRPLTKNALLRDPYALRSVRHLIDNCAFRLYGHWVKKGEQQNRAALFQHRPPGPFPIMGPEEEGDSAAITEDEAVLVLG", "UniProt Q8N4C8, sequence (whole entry, looked up)": "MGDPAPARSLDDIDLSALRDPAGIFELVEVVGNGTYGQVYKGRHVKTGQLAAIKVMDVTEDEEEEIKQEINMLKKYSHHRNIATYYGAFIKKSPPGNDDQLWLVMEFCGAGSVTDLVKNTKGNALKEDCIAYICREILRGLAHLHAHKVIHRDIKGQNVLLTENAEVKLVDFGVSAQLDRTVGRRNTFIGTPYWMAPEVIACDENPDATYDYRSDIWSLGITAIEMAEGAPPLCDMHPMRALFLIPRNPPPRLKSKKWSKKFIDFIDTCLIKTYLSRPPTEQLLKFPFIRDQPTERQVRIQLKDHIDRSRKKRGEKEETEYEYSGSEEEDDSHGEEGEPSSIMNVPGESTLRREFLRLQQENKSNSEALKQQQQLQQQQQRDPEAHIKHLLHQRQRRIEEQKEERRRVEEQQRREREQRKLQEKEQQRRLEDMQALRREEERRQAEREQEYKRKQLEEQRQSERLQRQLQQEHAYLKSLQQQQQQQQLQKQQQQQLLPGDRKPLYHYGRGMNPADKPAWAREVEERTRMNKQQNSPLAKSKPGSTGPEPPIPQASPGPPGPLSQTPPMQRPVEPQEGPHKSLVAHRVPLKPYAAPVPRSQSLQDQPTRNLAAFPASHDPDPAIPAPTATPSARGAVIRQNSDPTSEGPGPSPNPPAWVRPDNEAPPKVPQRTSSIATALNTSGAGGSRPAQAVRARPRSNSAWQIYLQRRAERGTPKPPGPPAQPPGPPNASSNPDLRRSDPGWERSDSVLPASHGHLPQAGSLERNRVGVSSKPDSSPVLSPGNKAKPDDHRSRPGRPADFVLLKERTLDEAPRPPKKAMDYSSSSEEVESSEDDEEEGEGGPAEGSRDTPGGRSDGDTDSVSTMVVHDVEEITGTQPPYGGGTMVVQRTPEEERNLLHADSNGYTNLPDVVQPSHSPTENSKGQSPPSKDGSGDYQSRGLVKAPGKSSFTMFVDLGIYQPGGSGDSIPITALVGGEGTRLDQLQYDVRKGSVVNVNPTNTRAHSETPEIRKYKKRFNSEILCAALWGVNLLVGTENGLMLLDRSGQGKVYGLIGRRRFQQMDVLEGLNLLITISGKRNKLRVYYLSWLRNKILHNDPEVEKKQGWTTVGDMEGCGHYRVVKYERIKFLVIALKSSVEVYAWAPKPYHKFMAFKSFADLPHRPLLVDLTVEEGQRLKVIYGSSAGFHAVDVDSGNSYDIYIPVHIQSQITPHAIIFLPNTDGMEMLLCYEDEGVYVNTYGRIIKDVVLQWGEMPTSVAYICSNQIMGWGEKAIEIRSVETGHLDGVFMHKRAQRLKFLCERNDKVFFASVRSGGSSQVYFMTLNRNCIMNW", "UniProt Q6U736, sequence (whole entry, looked up)": "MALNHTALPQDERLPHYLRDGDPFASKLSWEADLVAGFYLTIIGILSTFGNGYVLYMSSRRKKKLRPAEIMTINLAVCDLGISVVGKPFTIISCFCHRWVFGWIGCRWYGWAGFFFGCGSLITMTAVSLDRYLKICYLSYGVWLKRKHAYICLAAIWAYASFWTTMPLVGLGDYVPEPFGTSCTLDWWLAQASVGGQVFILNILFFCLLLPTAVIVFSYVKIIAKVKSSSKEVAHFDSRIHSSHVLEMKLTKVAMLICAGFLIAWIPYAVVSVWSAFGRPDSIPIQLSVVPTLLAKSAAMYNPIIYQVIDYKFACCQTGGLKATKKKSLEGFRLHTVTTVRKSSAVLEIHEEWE"}
{"SMILES": "COc1ccc(N2C(=O)N(c3c(C)cccc3Cl)Cc3cnc(Nc4ccc(C5CCN(C)CC5)cc4OC)nc32)nc1", "tested on": "SGK2 (Homo sapiens, UniProt Q9HBY8)", "test": "kinase activity", "setting": "0.5 µM", "endpoint": "inhibition", "result": "16%"}
{"SMILES": "COc1cc(Nc2ncc(F)c(Nc3ccc4c(n3)NC(=O)C(C)(C)O4)n2)cc(OC)c1OC", "tested on": "MINK1 (Homo sapiens, UniProt Q8N4C8)", "test": "KINOMEscan", "setting": "10 µM, MINK", "endpoint": "inhibition", "result": "72%"}
{"SMILES": "CN(C(=O)n1cnc(-c2ccc[n+]([O-])c2)c1)C1CCCCC1", "tested on": "OPRD1 (Homo sapiens, UniProt P41143)", "test": "binding", "setting": "10 µM, added: [3H]naltrindole", "endpoint": "inhibition", "result": "9%"}
{"SMILES": "N.N.[Cl][Pt][Cl]", "tested on": "Genome polyprotein NS3 helicase domain", "test": "DNA binding, inhibitor", "test system": "hepatitis C virus", "setting": "100 µM, added: Cy5-dT15 DNA", "endpoint": "inhibition", "result": "1%"}
{"SMILES": "Oc1ccc2c3c1O[C@H]1[C@@H](O)CC[C@@]4(O)[C@@H](C2)N(CC2CCC2)CC[C@]314", "tested on": "Opsin-5 (OPN5, Homo sapiens, UniProt Q6U736)", "test": "β-arrestin recruitment, TANGO luminescence, measured: OPN5", "setting": "concentration not given", "how to read": "reference: basal luminescence", "endpoint": "log2 fold change", "result": 0.216}
{"SMILES": "O=C(Nc1cnccc1Cl)N1CCN(Cc2ccc3c(c2)OC(F)(F)O3)CC1", "tested on": "PHKG2", "test": "kinase activity, inhibitor", "setting": "50 µM, human", "endpoint": "inhibition", "result": "14%"}
{"SMILES": "N#CCCN.N#CCCN.O=C(O)/C=C/C(=O)O", "tested on": "Genome polyprotein NS3 helicase domain", "test": "DNA binding, inhibitor", "test system": "hepatitis C virus", "setting": "100 µM, added: Cy5-dT15 DNA", "endpoint": "inhibition", "result": "4%"}
{"SMILES": "COc1cc2c(Oc3ccc4[nH]c(C)cc4c3F)ccnc2cc1OCC1(N)CC1", "test system": "paediatric recurrent refractory sarcoma", "setting": "10 mg", "endpoint": "bone pain incidence", "result": "25%"}
{"SMILES": "CO[C@H]1C[C@@H]2CC[C@@H](C)[C@@](O)(O2)C(=O)C(=O)N2CCCC[C@H]2C(=O)O[C@H]([C@H](C)C[C@@H]2CC[C@@H](OC(=O)NCCOCCOCCOCCOCCOCCOCCOCCOCCC(=O)N3CCc4cc(Cn5nc(-c6ccc7oc(N)nc7c6)c6c(N)ncnc65)ccc4C3)[C@H](OC)C2)C[C@@H](O)[C@H](C)/C=C(\\C)[C@@H](O)[C@@H](OC)C(=O)[C@H](C)C[C@H](C)/C=C/C=C/C=C/1C", "test": "phase 1 dose escalation, measured: fatigue", "test system": "advanced solid tumour patients", "setting": "intravenous, 12 mg weekly, any grade", "endpoint": "TRAE incidence", "result": "41.7%"}
{"SMILES": "CC(=O)NC[C@H]1[C@H](O)[C@H](O)[C@@H]2[C@H](O)C[C@@H](CO)N21", "tested on": "Spodoptera litura β-N-acetylglucosaminidase", "test system": "crude enzyme", "setting": "0.000784 µM, run 2, added: p-nitrophenyl GlcNAc", "endpoint": "inhibition", "result": "6.39%"}
{"SMILES": "C[C@H]1CN(c2n[nH]c3nc(N[C@H]4CC[C@H](NS(=O)(=O)CCC(F)(F)F)CC4)ncc23)CCO1", "tested on": "DARS1 (Homo sapiens, UniProt P14868)", "test": "Kinobeads competition, measured: DARS", "setting": "0.8 µM, unit not given", "how to read": "reference: vehicle", "endpoint": "remaining binding", "result": 1.21}
{"SMILES": "O=C(Nc1cccnn1)N1CCC(=Cc2cccc(Oc3ccc(C(F)(F)F)cn3)c2)CC1", "tested on": "PHKG2", "test": "kinase activity, inhibitor", "setting": "10 µM, human", "endpoint": "inhibition", "result": "0%"}
{"SMILES": "CN1CCN(c2cc(-c3ccncc3)c(-c3ccc4ccccc4c3)nn2)CC1", "tested on": "QRFPR (Homo sapiens, UniProt Q96P65)", "test": "antagonist, FLIPR", "setting": "10 µM", "endpoint": "inhibition", "result": "13.2%"}
{"note": "For quick reference, copied from above:"}
{"SMILES": "CC(=O)NC[C@H]1[C@H](O)[C@H](O)[C@@H]2[C@H](O)C[C@@H](CO)N21", "tested on": "Spodoptera litura β-N-acetylglucosaminidase", "test system": "crude enzyme", "setting": "0.000784 µM, run 2, added: p-nitrophenyl GlcNAc", "endpoint": "inhibition", "result": "6.39%"}
{"SMILES": "C[C@H]1CN(c2n[nH]c3nc(N[C@H]4CC[C@H](NS(=O)(=O)CCC(F)(F)F)CC4)ncc23)CCO1", "tested on": "DARS1 (Homo sapiens, UniProt P14868)", "test": "Kinobeads competition, measured: DARS", "setting": "0.8 µM, unit not given", "how to read": "reference: vehicle", "endpoint": "remaining binding", "result": 1.21}
